Experimental data pooled from the literature.
Protocols differ between the studies behind these lines. Several values in a cell are separate wells, animals, samples, runs or records. ± gives the spread as reported.

SMILES	test	test system	setting	scale	endpoint	result
C[C@@H](O)[C@H](NC(=O)c1ccc(-c2ccccc2)cc1)C(=O)NO		octanol/buffer	pH 11		logP	0.07
Cc1ccc(C(=O)N(CCCN)C(c2nc3snc(C)c3c(=O)n2Cc2ccccc2)C(C)C)cc1 (stereo not drawn)		human patients	intravenous, 13 mg/day		patients with CTCAE grade ≥3 events	33%
Cc1cc(-c2nccc3c2ccn3CC(=O)Nc2ccc(-c3cnccn3)cn2)ccn1		human	15 mg once daily, multiple ascending dose		subjects with coronavirus infection	11.1%
COc1ccc(C=CC(=O)O)cc1OS(=O)(=O)O		human, cerebrospinal fluid	concentration not given, median		CSF concentration	12.8 nM
FC(F)(F)c1ccc(CNc2ccc(Cc3c[nH]c4ncc(Cl)cc34)cn2)cn1		patients with advanced solid tumours	oral, 1000 mg/day, non-TGCT cohort, grade ≥3		decreased appetite incidence	2%
C=CC[C@@H]1/C=C(\C)C[C@H](C)C[C@H](OC)[C@H]2O[C@@](O)(C(=O)C(=O)N3CCCC[C@H]3C(=O)O[C@H](/C(C)=C/[C@@H]3CC[C@@H](O)[C@H](OC)C3)[C@H](C)[C@@H](O)CC1=O)[C@H](C)C[C@@H]2OC		Wistar Kyoto rat, male, plasma	ip, 0.5 mg/kg/day, day 18		plasma total Ca2+	2.76 ± 0.05 mmol/L
O=C(O)CNC(=O)c1c(O)cc(CCc2ccccc2)n2ncnc12	shake-flask, potentiometric	1-octanol/water			logP	3.2
Cc1cc(NC(=O)c2cccc(NC(=O)/C=C/CN(C)C)c2)ccc1Nc1nccc(-c2cccnc2)n1	metabolic stability	Wistar rat, male, primary hepatocytes	1 µM, 90 min		compound remaining	62.3%
CN(CC#N)C(=O)C[C@H](Nc1nc2ccccc2[nH]1)c1cccc(C(F)(F)F)c1		human	intravenous infusion, 2 mg/kg, 10 mg/mL formulation		steady-state volume of distribution	47 ± 18.2 L
O=C(OC(C(F)(F)F)C(F)(F)F)N1CCN(Cc2cccc(Oc3ccccc3)c2)CC1	PET blocking study	rhesus monkey, brain STR	0.3 mg/kg, compound pretreatment, together with: [18F]T-401 tracer		k2	0.151 min⁻¹
Cc1cc(C)c(S(=O)(=O)N(C)CC(=O)N2CCC(C(N)=O)CC2)c(C)c1		octanol/buffer	pH 11		logP	1.38
CC(C)(C(=O)N1CCOc2c(C#N)cncc2C1)C(F)F	measured: haematochezia	human, both sexes	oral, 10 mg once daily, 14 days, multiple ascending dose		subjects with TEAE	0%
COc1c(OCCCN2CCOCC2)ccc2c1N=C(NC(=O)c1cnc(N)nc1)N1CCN=C21		human		baseline: females over males	decrease in V1	42.9%
COc1ccc([C@@H](O)c2cc(-c3ncnc4cc(N5CCOCC5)ccc34)c(F)cc2Cl)nn1		locally advanced rectal cancer patients	150 mg, together with: capecitabine and radiotherapy		decreased appetite TEAE incidence	50%
COc1cc2c(Nc3ccc(Cl)c(Cl)c3F)ncnc2cc1OC[C@@H]1C[C@@H]2CN(C)C[C@@H]2C1		FVB wild-type mouse	oral, 70 mg/kg, 2 h		total plasma concentration	1330 ng/mL
COCCOc1cnc2ccn([C@H](C)c3nnc4c(F)cc(-c5cnn(C)c5)cn34)c(=O)c2c1		patients, plasma	oral, 150 mg twice daily, day 28, 300 per day		Cmax	4310 ng/mL
Cn1cnc2c(F)c(Nc3ccc(Br)cc3Cl)c(C(=O)NOCCO)cc21	population PK model	human, plasma	oral, zero-order absorption model, fed		zero-order absorption duration	5.81 h
CC[N+]([O-])(CC)CCNC(=O)c1c(C)[nH]c(/C=C2\C(=O)Nc3ccc(F)cc32)c1C		human, serum	50 mg maintenance dose		serum concentration	0.29 ng/mL
CC(C)n1c(Nc2cccnc2)nc2cnc(Nc3ccc(N4CCN(C)CC4)cc3)nc21	measured: alanine aminotransferase increased	healthy male subjects	oral, 150 mg, study, together with: rifampin		subjects with adverse event	7.1%
Cc1cccc(Cn2cc(CO)c3cnccc32)c1		F344 rat, male, serum	oral, 100 mg/kg/day, 2 days		AST	117 U/L and 112 U/L and 110 U/L
O=C(COc1ccc(Cl)cc1)NC12CC(c3nnc([C@H]4C[C@@H](OC(F)(F)F)C4)o3)(C1)C2		humans	200 mg once daily		muscle spasms	11.1%

Excerpt of the above:
SMILES	test	test system	setting	scale	endpoint	result
O=C(COc1ccc(Cl)cc1)NC12CC(c3nnc([C@H]4C[C@@H](OC(F)(F)F)C4)o3)(C1)C2		humans	200 mg once daily		muscle spasms	11.1%
